Assay results from different studies.
Numbered parts are unrelated; each lists some results of a single study. Changes are numbered by the printed parent chain.

Sample 1 — technique: competition protein-binding microarray; form: double-stranded DNA, one strand shown; sample: in vitro; concentration: 2 µM; with: Pho4 competitor, 0.05 µM; direction: higher = stronger binding; measurement: fluorescence intensity; constant ends, left off below: … GTCTTGATTCGCTTGACGCTGCTG
Target: Centromere-binding protein 1, full length, His-tagged (CBF1, Saccharomyces cerevisiae, UniProt P17106, residues 1-351)
Chain of UniProt P17106 (whole entry, looked up): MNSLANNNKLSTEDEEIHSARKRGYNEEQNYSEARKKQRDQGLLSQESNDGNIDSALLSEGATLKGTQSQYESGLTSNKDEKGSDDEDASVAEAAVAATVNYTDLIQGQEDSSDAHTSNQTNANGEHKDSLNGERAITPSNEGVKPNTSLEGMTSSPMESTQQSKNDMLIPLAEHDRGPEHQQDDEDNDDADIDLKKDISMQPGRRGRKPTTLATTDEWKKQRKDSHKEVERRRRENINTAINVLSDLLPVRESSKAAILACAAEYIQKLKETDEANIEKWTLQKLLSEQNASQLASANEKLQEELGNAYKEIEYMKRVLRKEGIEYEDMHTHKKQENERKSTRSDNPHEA
Notes: whole 60-bp probe, lowest competitor level
ATTACCAAACGCTGTCATGTGTAGCCACTCTAGAAG: 140 a.u.
TGGTAATAACTGGAGCATGTGGCTGCGAATGTCCCG: 134 a.u.
ATTGTTTACACCAATCGCGTGGGTAAAGGGGCTGGA: 75.7 a.u.
ACACAAAATTGTGGAACCGTGACAAGCAATGGCTGA: 131 a.u.
CAAACTCAGTACCGTCAGCTGACAACTGCACTTCAA: 417 a.u.
CTTCTGTAAATTTGCGCTGTGGGTGGACGCGCCCCG: 74.6 a.u.
AAAGCGGTAATTTTTCACGTGGTCTCACATATCTAT: 1800 a.u.
ATCATTACACCGCGAGTCGTGGGTACATTGTAGTTT: 104 a.u.
GCTGCGGCATCATTGATCATGCCATTTTTGGACAAT: 80.7 a.u.
CTTCTGTAAATTTCTCACGTGTTTTGACGCGCCCCG: 1230 a.u.
ACAAGGGCCCTTAAAGGCGTGACTCGAAAAAGGGGC: 546 a.u.
CTTCTGTAAATTTTTCACGTGGTCTGACGCGCCCCG: 1230 a.u.
AAATTACTAAGTTGAGCGGTGGGTGACGCCGTATGA: 82.6 a.u.
ACCTATATGAATTCTCATGTGTCTCGTCTGATGTTC: 88.3 a.u.
TATAGAAAATTTCTGAGTGAAGGGTGGTCTATACAC: 66.4 a.u.
TTCAGCCATCCAAGCCATGTGCTTTAAGTCGTCGCT: 100 a.u.
CTGATGCCCATGGAGACTGTGACGCTAAGAGGAATT: 72.7 a.u.

Sample 2 — technique: RNAcompete; form: RNA; sample: in vitro; concentration: 20 nM; notes: 7-mer, probes averaged, single round; reference: mean of 7-mers; direction: higher = stronger binding; measurement: 7-mer Z-score
Target: PABPC1L2, full length, GST fusion (mouse, UniProt A0ABA7IW68)
Residues (chain): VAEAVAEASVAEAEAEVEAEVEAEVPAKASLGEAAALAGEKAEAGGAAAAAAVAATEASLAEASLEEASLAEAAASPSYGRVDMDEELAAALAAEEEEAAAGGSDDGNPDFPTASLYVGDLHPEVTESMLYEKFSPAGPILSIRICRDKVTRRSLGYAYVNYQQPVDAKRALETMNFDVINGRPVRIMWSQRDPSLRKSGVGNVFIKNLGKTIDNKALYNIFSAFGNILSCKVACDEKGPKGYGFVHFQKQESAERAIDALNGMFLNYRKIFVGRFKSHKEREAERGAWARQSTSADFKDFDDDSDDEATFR
CCUGUGG: -0.3
GGAUGUA: 0.00979
CCGGACU: -0.171
CCUUAAC: -0.376
UGCCAGA: 0.000733
UCCCCGA: -0.302
GAAUUCG: -0.226
CCGCCAU: -0.385
UAGGGCA: 0.354
AUACUAU: -0.151
GUUUGGG: -0.409
CCUGGUG: -0.255
GUCUGCG: -0.362
GGUACAG: 0.0279
GCGAAGU: 0.0134
CCCCGAU: -0.324
AUAUUGA: -0.0699
GGAAUUC: -0.141
CCCUUCA: -0.304
AAUCCUU: -0.126
UAUAUUA: -0.0844
GCUCGUG: -0.394
UGUUUAG: -0.403
AGUUUUA: -0.206
AAUUUCU: -0.269

Sample 3 — target: CCND2, cyclin fold, Cln2 fusion (human); technique: yeast growth competition, sequencing; sample: yeast; notes: weak parent motif; reference: not given; direction: higher = stronger binding; measurement: normalised enrichment score
Parent: BRCA2 docking peptide (human); CKKRRALDFLSRL
R12A: 0.818
K2A: 0.267
R4A: 0.157
R5K F9L: 0.411
D8A: 0.184
R5A L7A: -0.0161
R5K: -0.423
L7A: 0.0988
L10A: 0.482

Sample 4 — technique: RNA Bind-n-Seq; form: RNA; sample: in vitro; concentration: 365 nM; reference: no-protein control; direction: higher = stronger binding; measurement: RBNS enrichment (R)
Target: RNA binding protein fox-1 homolog 2, RRM domain, GST-SBP tag (RBFOX2, Homo sapiens, UniProt O43251-10, residues 100-194)
Notes: natural RNA segment, single round, ends assumed
Constant ends, left off below: GGGAGUUCUACAGUCCGACGAUC … UGGAAUUCUCGGGUGCCAA
Residues (chain): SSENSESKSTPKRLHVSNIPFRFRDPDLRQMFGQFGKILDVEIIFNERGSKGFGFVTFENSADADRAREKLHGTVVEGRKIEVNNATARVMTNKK
CUGAGCUCUACCCAUGAGGACCUCUACUCCCAACCCCACAGCCUCUCCAAGGACCCAGGCGCCAGCAGCCCCAGGACACAGGGGACUCAGUGUGUGGGACUUGGUCACUC: 0.397
AGCCGUCCCCGUCAAGGUGUGGGGCUCCUUUCAUGCAUUUGCUUCUUUUCCAGAGUGUGGAUUUGAACUACUUCCCCCUGCAAAGGGCCGCGUGCACCCUGCCGAGCUGC: 1.01
GGGCAGGAGUUGGAAUUAGUUGGUCCCUACUGUCCCCCAUGAGGUUGUGAACCCCUCCCCCCAACUUUUCAUGUUUCUUAAAGGCAUUUUGGUUUUUUAAAAUCUGUACA: 0.538
AACAUUUUCUCCCUGGAUUUUUACCAGUCUCACAUGAUUCCAGCCAUCACCUUAGACCACCAAGCCUUGAUUGGUGUUGCCAGUUGUCCUCCUUCCGGGGAAGGAUUUUG: 0.457
AGCAGGUCUGGUGACACAGCUAGGGUCUUCCUAGCAGCUCCUCCUCCUCCCUCCCAAGGCCCCCAGGAAUCCCUUCCUCCCAUGUCCUGGCAGCAGGACCCCAGGCUACA: 0.352
AGGUAAUGGGGCCACCUGCUUGACACAUUGUGACGGAACCGACACCAAAGCUGAGGUCCCCUUGAUCAUGAACUCCAUAAAAUCCUUUUCUGACCACGCUCAAUGUGGAA: 0.358
AUCCUUAUGCCAAUUCAGCUACUAAUCGGUCAUUCAUAAAUGGUGAUUAAAAUGAUCAGGUAAUUUUUAAUUGAAAAUCAUGGUGUGAAAUAUAUCUACCCAAAGAGGUA: 1.04
GGACCCGCAGGGACCAGCUGACCAGGCUUGUGCUCAGAGAAGCAGACAAAACAAAGAUUCAAGGUUUUAAUUAAUUCCCAUACUGAUAAAAAUAACUCCAUGAAUUCUGU: 0.434
GCCCCACUGCGCUGCUGACCUUCCUGCAGUUCCAGACACCUCCCACAAUAAAGAGCUCCUCCUCUGUAGCCGCUCUGCCAUCUCUGUGUACAAGGGUGCUGCAGCCAGUG: 0.457
UGUGUGACCUGCAGGGCAUGAGGUAUUGAUGUGUUCGGGUUUCCUUUCCCAAGCCAGCAGAUGCAGGUGUUCCAAGGUGUGUUGCUCUGUGGGAUUUGUGGACACUUAAG: 2.07
GUGGUCUCCACAGCCACCAUCAUACACUCAUCCCGUGUUUUCUUCCAAAAAGUCACCUCAGCAGCCUCCCCAGGCGAUACAGAGGGAGAGCCCAGACCACCACAGCUGGC: 0.525
GCGAGAGGACCUUCUGACGGUGAUUGUCCAACAUGCAUCUGGCCCGCUCUGCGGCUCCUCCCACCUCCAUCUUCUCCUAUCAUCGGGCUUAUUAUCCUCUCUCUUGGCUU: 1.23

Repeated from above (sample 4):
AGGUAAUGGGGCCACCUGCUUGACACAUUGUGACGGAACCGACACCAAAGCUGAGGUCCCCUUGAUCAUGAACUCCAUAAAAUCCUUUUCUGACCACGCUCAAUGUGGAA: 0.358
GGGCAGGAGUUGGAAUUAGUUGGUCCCUACUGUCCCCCAUGAGGUUGUGAACCCCUCCCCCCAACUUUUCAUGUUUCUUAAAGGCAUUUUGGUUUUUUAAAAUCUGUACA: 0.538
UGUGUGACCUGCAGGGCAUGAGGUAUUGAUGUGUUCGGGUUUCCUUUCCCAAGCCAGCAGAUGCAGGUGUUCCAAGGUGUGUUGCUCUGUGGGAUUUGUGGACACUUAAG: 2.07
